Published values pooled from the literature.
Compare with care: the assays were run in different laboratories. ± gives the spread as reported.

SMILES = C#Cc1cccc(Nc2ncnc3cc(OCCOC)c(OCCOC)cc23)c1; test system = human, plasma; conditions = oral, 100 mg daily, day 8, with: docetaxel; AUC(0-24 h) = 45.5 ± 23.7 µM·h
SMILES = N#CCC1CCN(c2nc(Nc3ccc(N4CCC(O)CC4)cc3)c3c(=O)[nH]ncc3n2)CC1; test system = human, plasma; conditions = oral, 20 mg once daily, day 15; AUC(0-24 h) = 850 ng·h/mL
SMILES = Cn1nc2c(=O)n(C3CC3)cnc2c1[C@](O)(c1cnc(C(F)(F)F)c(Cl)c1)C(F)(F)F; test system = humanized SCID mice, blood; conditions = 30 mg/kg once daily, 6 days, infected; AUC(0-24 h) = 226 µM·h
SMILES = Cl.[2H]C([2H])([2H])CC(=O)c1cnc(NC(=O)C2CC2)cc1Nc1cccc(-c2ncn(C([2H])([2H])[2H])n2)c1OC; test = geometric mean; test system = human; conditions = oral, 50 mg single dose, fasted, liquid; AUC(0-24 h) = 3680 ng·h/mL
SMILES = Cc1cc(C)c(CNC(=O)c2cc(Cl)c3c(c2C)O[C@@](C)([C@H]2CC[C@H](N(C)C)CC2)O3)c(=O)[nH]1; test = refers to: total radioactivity; test system = human male, plasma; conditions = oral, 200 mg; AUC(0-24 h) = 18700 ng eq. ·h/mL
SMILES = CC1=C(c2cccc(O)c2)[C@H](c2ccc(OCCN3CC(CF)C3)cc2)Oc2ccc(O)cc21; test system = human, plasma; conditions = oral, 1000 mg once daily, steady state geometric mean; AUC(0-24 h) = 1720 ng·h/mL
SMILES = Cc1cc2nc3c(=O)[nH]c(=O)nc-3n(C[C@H](O)[C@H](O)[C@H](O)CO)c2cc1C; test system = human, plasma; conditions = oral, dose not given, day 7, with: rosuvastatin; AUC(0-24 h) = 147 ng·h/mL
SMILES = COc1cc2nccc(Oc3ccc(NC(=O)c4cc5c(n(-c6ccccc6)c4=O)CCCC5=O)nc3)c2cc1OC; test system = human patients; conditions = oral, dose not given, day 29, with venetoclax 6 mg once daily; AUC(0-24 h) = 9840 ng·h/mL
SMILES = O=C(NO)c1ccc(CN(c2cnccn2)c2cnccn2)cc1; test system = human patients, plasma; conditions = oral, 800 mg twice daily, day 15, approximate mean; AUC(0-24 h) = ~11000 ng·h/mL

Excerpt of the above:
SMILES = Cc1cc2nc3c(=O)[nH]c(=O)nc-3n(C[C@H](O)[C@H](O)[C@H](O)CO)c2cc1C; test system = human, plasma; conditions = oral, dose not given, day 7, with: rosuvastatin; AUC(0-24 h) = 147 ng·h/mL
